# Measurements gathered from unrelated publications.
# Each line is one published result; not all experiments were run side by side. “And” joins repeats or separate records; there may be more than shown. ± gives the spread as reported.
# CYP3A4: Cytochrome P450 3A4 (CYP3A4, Homo sapiens, UniProt P08684)
# Chain of UniProt P08684 (whole entry, looked up): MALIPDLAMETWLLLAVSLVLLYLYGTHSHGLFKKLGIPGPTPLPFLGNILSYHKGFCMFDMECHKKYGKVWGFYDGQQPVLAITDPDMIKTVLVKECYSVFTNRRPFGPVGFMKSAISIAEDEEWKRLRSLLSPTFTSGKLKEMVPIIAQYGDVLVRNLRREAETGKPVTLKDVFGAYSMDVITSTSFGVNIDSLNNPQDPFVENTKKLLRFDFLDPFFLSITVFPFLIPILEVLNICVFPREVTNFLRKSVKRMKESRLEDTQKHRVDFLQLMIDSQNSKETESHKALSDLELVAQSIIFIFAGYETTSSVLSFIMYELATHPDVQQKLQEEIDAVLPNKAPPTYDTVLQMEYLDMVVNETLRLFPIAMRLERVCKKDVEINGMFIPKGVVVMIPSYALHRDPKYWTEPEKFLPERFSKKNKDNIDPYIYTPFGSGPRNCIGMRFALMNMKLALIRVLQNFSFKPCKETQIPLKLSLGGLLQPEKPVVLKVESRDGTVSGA
# Tumor necrosis factor receptor superfamily member 9/Nectin-4: Tumor necrosis factor receptor superfamily member 9/Nectin-4 (Homo sapiens, UniProt Q07011+Q96NY8)
# Chain of UniProt Q07011 (whole entry, looked up): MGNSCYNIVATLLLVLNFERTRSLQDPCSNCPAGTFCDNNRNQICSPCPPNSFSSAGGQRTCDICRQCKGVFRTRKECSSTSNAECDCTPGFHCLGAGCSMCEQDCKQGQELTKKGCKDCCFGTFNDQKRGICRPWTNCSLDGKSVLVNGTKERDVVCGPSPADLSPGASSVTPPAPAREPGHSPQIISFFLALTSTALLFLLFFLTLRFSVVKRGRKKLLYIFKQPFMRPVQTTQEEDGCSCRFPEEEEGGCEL
# Chain of UniProt Q96NY8 (whole entry, looked up): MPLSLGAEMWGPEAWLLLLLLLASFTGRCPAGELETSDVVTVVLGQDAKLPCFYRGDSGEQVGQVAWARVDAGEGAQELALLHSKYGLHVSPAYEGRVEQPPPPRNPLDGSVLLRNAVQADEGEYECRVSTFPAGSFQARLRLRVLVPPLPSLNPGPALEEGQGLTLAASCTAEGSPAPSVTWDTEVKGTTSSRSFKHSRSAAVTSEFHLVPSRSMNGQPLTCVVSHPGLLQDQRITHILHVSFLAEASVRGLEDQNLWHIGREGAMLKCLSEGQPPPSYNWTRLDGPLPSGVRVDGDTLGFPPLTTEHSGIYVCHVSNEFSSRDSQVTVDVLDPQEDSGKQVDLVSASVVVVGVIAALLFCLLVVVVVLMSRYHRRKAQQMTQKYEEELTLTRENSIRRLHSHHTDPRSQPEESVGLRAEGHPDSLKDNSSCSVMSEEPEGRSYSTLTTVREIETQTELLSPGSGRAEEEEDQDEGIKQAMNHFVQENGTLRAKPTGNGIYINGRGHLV
# Chain of UniProt Q16853 (whole entry, looked up): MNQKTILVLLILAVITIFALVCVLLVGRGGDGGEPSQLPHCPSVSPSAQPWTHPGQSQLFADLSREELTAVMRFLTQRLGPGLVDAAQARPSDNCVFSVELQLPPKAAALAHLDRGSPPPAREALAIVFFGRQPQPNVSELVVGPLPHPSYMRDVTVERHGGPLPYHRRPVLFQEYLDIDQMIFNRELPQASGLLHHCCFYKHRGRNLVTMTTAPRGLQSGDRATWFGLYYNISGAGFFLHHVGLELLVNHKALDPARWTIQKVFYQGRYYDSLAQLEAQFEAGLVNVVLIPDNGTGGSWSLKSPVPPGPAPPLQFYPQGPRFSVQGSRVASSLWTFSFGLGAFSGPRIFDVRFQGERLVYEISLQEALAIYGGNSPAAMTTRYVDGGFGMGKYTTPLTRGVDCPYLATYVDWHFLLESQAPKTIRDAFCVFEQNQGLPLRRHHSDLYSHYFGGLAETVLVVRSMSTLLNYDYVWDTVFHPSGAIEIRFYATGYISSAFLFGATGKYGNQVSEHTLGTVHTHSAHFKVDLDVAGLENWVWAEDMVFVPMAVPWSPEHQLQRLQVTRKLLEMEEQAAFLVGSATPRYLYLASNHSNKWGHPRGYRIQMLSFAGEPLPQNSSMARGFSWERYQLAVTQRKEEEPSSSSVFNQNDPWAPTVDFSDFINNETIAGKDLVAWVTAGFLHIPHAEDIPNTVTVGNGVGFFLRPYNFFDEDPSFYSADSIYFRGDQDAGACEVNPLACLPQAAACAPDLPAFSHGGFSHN
# Chain of UniProt Q92887 (whole entry, looked up): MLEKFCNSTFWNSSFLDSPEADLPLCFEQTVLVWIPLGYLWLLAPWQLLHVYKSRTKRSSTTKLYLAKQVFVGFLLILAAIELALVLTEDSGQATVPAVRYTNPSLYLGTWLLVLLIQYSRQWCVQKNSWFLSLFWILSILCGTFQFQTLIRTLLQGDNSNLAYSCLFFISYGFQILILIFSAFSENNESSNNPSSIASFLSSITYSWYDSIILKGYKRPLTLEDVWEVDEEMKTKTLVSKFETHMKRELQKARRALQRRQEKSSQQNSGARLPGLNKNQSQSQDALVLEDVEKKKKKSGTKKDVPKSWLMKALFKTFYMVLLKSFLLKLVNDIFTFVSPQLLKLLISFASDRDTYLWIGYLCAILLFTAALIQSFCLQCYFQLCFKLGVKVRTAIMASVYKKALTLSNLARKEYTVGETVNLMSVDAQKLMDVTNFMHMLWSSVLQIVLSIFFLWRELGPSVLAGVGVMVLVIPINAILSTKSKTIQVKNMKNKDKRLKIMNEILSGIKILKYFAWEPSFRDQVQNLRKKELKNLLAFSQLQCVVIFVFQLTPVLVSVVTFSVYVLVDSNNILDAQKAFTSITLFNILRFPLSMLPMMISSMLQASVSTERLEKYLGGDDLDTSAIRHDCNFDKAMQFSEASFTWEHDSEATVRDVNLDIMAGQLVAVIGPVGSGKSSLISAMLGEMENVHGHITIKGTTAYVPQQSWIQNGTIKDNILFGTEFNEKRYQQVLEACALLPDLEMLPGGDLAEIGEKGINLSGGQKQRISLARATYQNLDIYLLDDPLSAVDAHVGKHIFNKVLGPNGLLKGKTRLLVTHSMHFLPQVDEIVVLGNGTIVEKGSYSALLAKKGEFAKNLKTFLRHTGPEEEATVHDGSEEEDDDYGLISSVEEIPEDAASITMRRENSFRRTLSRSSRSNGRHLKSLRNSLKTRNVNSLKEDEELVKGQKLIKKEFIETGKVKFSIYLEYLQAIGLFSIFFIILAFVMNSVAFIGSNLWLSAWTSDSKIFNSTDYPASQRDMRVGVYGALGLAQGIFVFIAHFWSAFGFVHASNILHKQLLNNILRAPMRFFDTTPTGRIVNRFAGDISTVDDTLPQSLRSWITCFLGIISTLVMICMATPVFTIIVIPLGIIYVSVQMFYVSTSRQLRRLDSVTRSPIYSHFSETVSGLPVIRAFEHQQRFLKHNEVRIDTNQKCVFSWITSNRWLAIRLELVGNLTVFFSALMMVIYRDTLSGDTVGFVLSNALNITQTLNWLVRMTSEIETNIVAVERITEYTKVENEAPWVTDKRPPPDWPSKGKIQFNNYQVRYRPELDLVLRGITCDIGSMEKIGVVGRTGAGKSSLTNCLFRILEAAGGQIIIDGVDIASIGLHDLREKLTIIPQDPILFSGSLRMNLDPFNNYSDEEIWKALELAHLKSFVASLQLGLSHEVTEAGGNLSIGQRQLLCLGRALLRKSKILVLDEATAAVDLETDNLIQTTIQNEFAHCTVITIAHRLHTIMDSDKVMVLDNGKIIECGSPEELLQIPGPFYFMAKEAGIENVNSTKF
# Chain of UniProt P0DMM9 (whole entry, looked up): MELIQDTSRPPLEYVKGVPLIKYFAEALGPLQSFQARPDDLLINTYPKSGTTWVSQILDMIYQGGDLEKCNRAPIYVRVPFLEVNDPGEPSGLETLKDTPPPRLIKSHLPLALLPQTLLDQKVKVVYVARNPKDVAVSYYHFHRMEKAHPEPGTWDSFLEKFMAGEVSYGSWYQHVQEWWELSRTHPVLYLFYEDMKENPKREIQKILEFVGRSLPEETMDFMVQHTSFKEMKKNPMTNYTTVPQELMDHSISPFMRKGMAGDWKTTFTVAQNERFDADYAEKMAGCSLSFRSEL
# Chain of UniProt P05177 (whole entry, looked up): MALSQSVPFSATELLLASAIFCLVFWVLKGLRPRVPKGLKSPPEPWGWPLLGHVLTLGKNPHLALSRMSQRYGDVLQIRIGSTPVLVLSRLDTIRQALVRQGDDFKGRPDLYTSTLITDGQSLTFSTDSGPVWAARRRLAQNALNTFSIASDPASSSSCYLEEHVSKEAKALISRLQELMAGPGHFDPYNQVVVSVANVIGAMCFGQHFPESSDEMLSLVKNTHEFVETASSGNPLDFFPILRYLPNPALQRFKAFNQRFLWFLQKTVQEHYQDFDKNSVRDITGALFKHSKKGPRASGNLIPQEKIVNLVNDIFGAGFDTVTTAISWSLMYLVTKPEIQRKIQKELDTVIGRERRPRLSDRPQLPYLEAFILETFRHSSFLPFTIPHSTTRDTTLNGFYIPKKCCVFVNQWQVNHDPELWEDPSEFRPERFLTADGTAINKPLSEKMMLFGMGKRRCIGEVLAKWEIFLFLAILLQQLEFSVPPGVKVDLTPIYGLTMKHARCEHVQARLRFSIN
# Chain of UniProt P35503 (whole entry, looked up): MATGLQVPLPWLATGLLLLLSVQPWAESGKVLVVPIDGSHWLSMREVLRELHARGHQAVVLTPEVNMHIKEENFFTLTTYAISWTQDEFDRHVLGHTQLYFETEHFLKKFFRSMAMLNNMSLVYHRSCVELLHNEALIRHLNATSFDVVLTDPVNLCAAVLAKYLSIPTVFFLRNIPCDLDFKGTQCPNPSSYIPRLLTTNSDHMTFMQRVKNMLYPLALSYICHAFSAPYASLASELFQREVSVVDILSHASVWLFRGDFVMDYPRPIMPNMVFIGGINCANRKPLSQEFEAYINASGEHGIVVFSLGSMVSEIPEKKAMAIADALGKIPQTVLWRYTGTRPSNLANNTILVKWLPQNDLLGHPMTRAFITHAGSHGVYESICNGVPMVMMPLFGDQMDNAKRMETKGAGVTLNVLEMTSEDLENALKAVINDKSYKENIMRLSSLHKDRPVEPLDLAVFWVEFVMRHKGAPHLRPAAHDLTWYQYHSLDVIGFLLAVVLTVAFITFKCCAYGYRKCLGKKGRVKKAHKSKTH
SMILES,target,test,system,conditions,scale,endpoint,value
COc1ccc(F)cc1C(=O)NCc1ccc(-c2nn([C@@H](C)C(F)(F)F)c(N)c2C(N)=O)cc1,CYP3A4,,"human, both sexes, plasma","oral, 200 mg, single dose, together with: itraconazole",,Tmax,3.5 h
CCC(=O)NCC[C@@H]1CCc2cc(O)c3c(c21)CCO3,"Sulfotransferase 1A3 (SULT1A3, Homo sapiens, UniProt P0DMM9)","substrate, sulfation, purified enzyme",,"10 µM, 10 min, pH 7.0, 37 °C",,specific activity,0.17 ± 0.04 nmol/min/mg
CCc1c2c(nc3ccc(O)cc13)-c1cc3c(c(=O)n1C2)COC(=O)[C@]3(O)CC,UGT (mouse),"glucuronidation, substrate","FVB mouse, liver S9 fraction","30 min, pH 7.4",,Km,31 ± 37.9 µM
CCCC[C@@H]1NC(=O)[C@H](Cc2ccc(O)cc2)NC(=O)[C@@H]2CCCN2C(=O)[C@H](CC(=O)O)NC(=O)[C@H](C)NC(=O)[C@H](Cc2ccccc2)NC(=O)[C@@H]2CSCCC(=O)N3CN(CN(C3)C(=O)CCSC[C@@H](C(=O)N[C@@H](C)C(N)=O)NC1=O)C(=O)CCSC[C@H](NC(C)=O)C(=O)N[C@@H](CC(C)(C)C)C(=O)N1CCC[C@H]1C(=O)N[C@@H](CCC(=O)O)C(=O)N[C@H](CCCCNC(=O)CCc1cn(CCOCCOCCOCCOCCOCCOCCOCCOCCOCCOCCNC(=O)c3cc(C(=O)NCCOCCOCCOCCOCCOCCOCCOCCOCCOCCOCCn4cc(CCC(=O)NCCCC[C@H]5NC(=O)[C@H](CCC(=O)O)NC(=O)[C@@H]6CCCN6C(=O)[C@H](CC(C)(C)C)NC(=O)[C@@H](NC(C)=O)CSCCC(=O)N6CN7CN(C6)C(=O)CCSC[C@H](NC(=O)[C@H](Cc6ccc(O)cc6)NC(=O)[C@@H]6CCCN6C5=O)C(=O)N[C@@H](Cc5ccccc5)C(=O)N[C@@H](C)C(=O)N[C@@H](CC(=O)O)C(=O)N5CCC[C@H]5C(=O)N[C@@H](Cc5ccc(O)cc5)C(=O)N[C@@H](CCCC)C(=O)N[C@H](C(=O)N[C@@H](C)C(N)=O)CSCCC7=O)nn4)cc(C(=O)NCCOCCOCCOCCOCCOCCOCCOCCOCCOCCOCCn4cc(CCC(=O)N[C@H]5CSCCC(=O)N6CN7CN(C6)C(=O)CCSC[C@H](NC(=O)[C@@H](CC(=O)O)NC(=O)[C@H](Cc6cccc8ccccc68)NC(=O)[C@@H]6CCCN6C5=O)C(=O)N[C@@H](CCSC)C(=O)N[C@@H](CCCCNC(=N)N)C(=O)N[C@@H](CC(=O)O)C(=O)N[C@@H](Cc5c[nH]c6ccccc56)C(=O)N[C@@H](CO)C(=O)N[C@@H]([C@@H](C)O)C(=O)N5CCC[C@H]5C(=O)N5C[C@H](O)C[C@H]5C(=O)N[C@@H](Cc5c[nH]c6ccccc56)C(=O)N[C@H](C(N)=O)CSCCC7=O)nn4)c3)nn1)C(=O)N1CCC[C@H]1C(=O)N[C@@H](Cc1ccc(O)cc1)C(=O)N2,Tumor necrosis factor receptor superfamily member 9/Nectin-4,"reporter gene, agonist, luciferase reporter",CD137 Jurkat reporter with HT-1376,"6 h, geometric mean",relative to: wells without compound,Emax,64 fold
COc1cc(O)c(CC=C(C)C)c(O)c1C(=O)/C=C/c1ccc(O)cc1,CYP2B6 (human),"enzyme activity, inhibitor",human liver microsomes,"1 µM, pH 7.4, together with: bupropion",,inhibition,< 10%
C=CC(=O)N1C[C@H](Nc2ncnc3[nH]ccc23)CC[C@@H]1C,CYP,substrate,"human, plasma","oral, 50 mg single dose, cpd alone",,AUC(0-inf),449 ng·h/mL
CCCC[C@@H]1NC(=O)[C@H](Cc2ccc(O)cc2)NC(=O)[C@@H]2CCCN2C(=O)[C@H](CC(=O)O)NC(=O)[C@H](C)NC(=O)[C@H](Cc2ccccc2)NC(=O)[C@@H]2CSCCC(=O)N3CN(CN(C3)C(=O)CCSC[C@@H](C(=O)N[C@@H](C)C(N)=O)NC1=O)C(=O)CCSC[C@H](NC(C)=O)C(=O)N[C@@H](CC(C)(C)C)C(=O)N1CCC[C@H]1C(=O)N[C@@H](CCC(=O)O)C(=O)N[C@H](CCCCNC(=O)CCOCCOCCOCCOCCOCCOCCOCCOCCOCCOCCOCCOCCn1cc(CCC(=O)NCCC(=O)N(C)CC(=O)N(C)CC(=O)N(C)CC(=O)N(C)CC(=O)N(C)CC(=O)N(C)CC(=O)N(C)CC(=O)N(C)CC(=O)N(C)CC(=O)N(C)CC(=O)N[C@H]3CSCCC(=O)N4CN5CN(C4)C(=O)CCSC[C@H](NC(=O)[C@@H](CC(=O)O)NC(=O)[C@H](Cc4cccc6ccccc46)NC(=O)[C@@H]4CCCN4C3=O)C(=O)N[C@@H](CCSC)C(=O)N[C@@H](CCCCNC(=N)N)C(=O)N[C@@H](CC(=O)O)C(=O)N[C@@H](Cc3c[nH]c4ccccc34)C(=O)N[C@@H](CO)C(=O)N[C@@H]([C@@H](C)O)C(=O)N3CCC[C@H]3C(=O)N3C[C@H](O)C[C@H]3C(=O)N[C@@H](Cc3c[nH]c4ccccc34)C(=O)N[C@H](C(N)=O)CSCCC5=O)nn1)C(=O)N1CCC[C@H]1C(=O)N[C@@H](Cc1ccc(O)cc1)C(=O)N2,Tumor necrosis factor receptor superfamily member 9/Nectin-4,"reporter gene, agonist, luciferase reporter",CD137 Jurkat reporter with HT-1376,"6 h, geometric mean",relative to: wells without compound,Emax,44 fold
Cc1cccc(C)c1OCC(C)N (stereo not shown),"Sodium channel protein type 5 subunit alpha (SCN5A, Homo sapiens, UniProt Q14524)",,,"concentration not given, 200 ms",,recovery from inactivation,76.7%
CCCN(CCC)S(=O)(=O)c1ccc(C(=O)O)cc1,"ATP-binding cassette sub-family C member 2 (ABCC2, Homo sapiens, UniProt Q92887)","transport activity, inhibitor",membrane vesicles overexpressing target,300 µM,,inhibition,22%
NCc1cc2c(cc1F)C(=O)N(C1CCC(=O)NC1=O)C2 (stereo not shown),"Amine oxidase [copper-containing] 3 (AOC3, Homo sapiens, UniProt Q16853)","substrate, LC-MS/MS",cirrhotic human liver lysate,"15.63 µM, 60 min, pH 7.4",,concentration,1750 ng/mL and 1950 ng/mL
Cc1oc2ccccc2c1Cc1cc(I)c(OCC(=O)O)c(I)c1,"Voltage-gated inwardly rectifying potassium channel KCNH2 (KCNH2, Homo sapiens, UniProt Q12809, S620T)","potassium current, activator, whole-cell patch clamp",HEK293 expressing hERG1-S620T,10 µM,,current enhancement,299 ± 41%
CCCC[C@@H]1NC(=O)[C@H](Cc2ccc(O)cc2)NC(=O)[C@@H]2CCCN2C(=O)[C@H](CC(=O)O)NC(=O)[C@H](C)NC(=O)[C@H](Cc2ccccc2)NC(=O)[C@@H]2CSCCC(=O)N3CN(CN(C3)C(=O)CCSC[C@@H](C(=O)N[C@@H](C)C(N)=O)NC1=O)C(=O)CCSC[C@H](NC(C)=O)C(=O)N[C@@H](CC(C)(C)C)C(=O)N1CCC[C@H]1C(=O)N[C@@H](CCC(=O)O)C(=O)N[C@H](CCCCNC(=O)CCc1cn(CC(=O)N[C@H]3CSCCC(=O)N4CN5CN(C4)C(=O)CCSC[C@H](NC(=O)[C@@H](CC(=O)O)NC(=O)[C@H](Cc4cccc6ccccc46)NC(=O)[C@@H]4CCCN4C3=O)C(=O)N[C@@H](CCSC)C(=O)N[C@@H](CCCCNC(=N)N)C(=O)N[C@@H](CC(=O)O)C(=O)N[C@@H](Cc3c[nH]c4ccccc34)C(=O)N[C@@H](CO)C(=O)N[C@@H]([C@@H](C)O)C(=O)N3CCC[C@H]3C(=O)N3C[C@H](O)C[C@H]3C(=O)N[C@@H](Cc3c[nH]c4ccccc34)C(=O)N[C@H](C(N)=O)CSCCC5=O)nn1)C(=O)N1CCC[C@H]1C(=O)N[C@@H](Cc1ccc(O)cc1)C(=O)N2,Tumor necrosis factor receptor superfamily member 9/Nectin-4,"reporter gene, agonist, luciferase reporter",CD137 Jurkat reporter with HT-1376,"6 h, geometric mean",relative to: wells without compound,Emax,44 fold
CC[C@H]1[C@@H](O)[C@@H]2[C@H](CC[C@]3(C)[C@@H]([C@H](C)CCNC(=O)NS(=O)(=O)c4ccc(C(C)(C)C)cc4)CC[C@@H]23)[C@@]2(C)CC[C@@H](O)C[C@@H]12,CYP3A4,,"human, plasma","10 mg, day 1, compound alone",,CL/F geometric mean,25.4 L/h
CCCC[C@@H]1NC(=O)[C@H](Cc2ccc(O)cc2)NC(=O)[C@@H]2CCCN2C(=O)[C@H](CC(=O)O)NC(=O)[C@H](C)NC(=O)[C@H](Cc2ccccc2)NC(=O)[C@@H]2CSCCC(=O)N3CN(CN(C3)C(=O)CCSC[C@@H](C(=O)N[C@@H](C)C(N)=O)NC1=O)C(=O)CCSC[C@H](NC(C)=O)C(=O)N[C@@H](CC(C)(C)C)C(=O)N1CCC[C@H]1C(=O)N[C@@H](CCC(=O)O)C(=O)N[C@H](CCCCNC(=O)CCc1cn(CCOCCOCCOCCOCCOCCOCCOCCOCCOCCOCCNC(=O)CCOCCN(CCOCCC(=O)NCCOCCOCCOCCOCCOCCOCCOCCOCCOCCOCCn3cc(CCC(=O)NCCCC[C@H]4NC(=O)[C@H](CCC(=O)O)NC(=O)[C@@H]5CCCN5C(=O)[C@H](CC(C)(C)C)NC(=O)[C@@H](NC(C)=O)CSCCC(=O)N5CN6CN(C5)C(=O)CCSC[C@H](NC(=O)[C@H](Cc5ccc(O)cc5)NC(=O)[C@@H]5CCCN5C4=O)C(=O)N[C@@H](Cc4ccccc4)C(=O)N[C@@H](C)C(=O)N[C@@H](CC(=O)O)C(=O)N4CCC[C@H]4C(=O)N[C@@H](Cc4ccc(O)cc4)C(=O)N[C@@H](CCCC)C(=O)N[C@H](C(=O)N[C@@H](C)C(N)=O)CSCCC6=O)nn3)CCOCCC(=O)NCCOCCOCCOCCOCCOCCOCCOCCOCCOCCOCCn3cc(CCC(=O)N[C@H]4CSCCC(=O)N5CN6CN(C5)C(=O)CCSC[C@H](NC(=O)[C@@H](CC(=O)O)NC(=O)[C@H](Cc5cccc7ccccc57)NC(=O)[C@@H]5CCCN5C4=O)C(=O)N[C@@H](CCSC)C(=O)N[C@@H](CCCCNC(=N)N)C(=O)N[C@@H](CC(=O)O)C(=O)N[C@@H](Cc4c[nH]c5ccccc45)C(=O)N[C@@H](CO)C(=O)N[C@@H]([C@@H](C)O)C(=O)N4CCC[C@H]4C(=O)N4C[C@H](O)C[C@H]4C(=O)N[C@@H](Cc4c[nH]c5ccccc45)C(=O)N[C@H](C(N)=O)CSCCC6=O)nn3)nn1)C(=O)N1CCC[C@H]1C(=O)N[C@@H](Cc1ccc(O)cc1)C(=O)N2,Tumor necrosis factor receptor superfamily member 9/Nectin-4,"reporter gene, agonist, luciferase reporter",CD137 Jurkat reporter with HT-1376,"6 h, geometric mean",relative to: wells without compound,Emax,40 fold
CC(C)=CCc1c(O)cc(O)c2c1O[C@H](c1ccc(O)cc1)CC2=O,"Cytochrome P450 1A2 (CYP1A2, Homo sapiens, UniProt P05177)",,,"1 µM, pH 7.4",,inhibition,55.8 ± 0.7%
O=C(O)COc1cccc(-c2nc(Nc3ccc4[nH]ncc4c3)c3ccccc3n2)c1,"UDP-glucuronosyltransferase 1A3 (UGT1A3, Homo sapiens, UniProt P35503)","enzyme activity, inhibitor",,together with: quinidine,,IC50,26.9 µM

# Some of these lines once more:
SMILES,target,test,system,conditions,scale,endpoint,value
CCCC[C@@H]1NC(=O)[C@H](Cc2ccc(O)cc2)NC(=O)[C@@H]2CCCN2C(=O)[C@H](CC(=O)O)NC(=O)[C@H](C)NC(=O)[C@H](Cc2ccccc2)NC(=O)[C@@H]2CSCCC(=O)N3CN(CN(C3)C(=O)CCSC[C@@H](C(=O)N[C@@H](C)C(N)=O)NC1=O)C(=O)CCSC[C@H](NC(C)=O)C(=O)N[C@@H](CC(C)(C)C)C(=O)N1CCC[C@H]1C(=O)N[C@@H](CCC(=O)O)C(=O)N[C@H](CCCCNC(=O)CCc1cn(CCOCCOCCOCCOCCOCCOCCOCCOCCOCCOCCNC(=O)CCOCCN(CCOCCC(=O)NCCOCCOCCOCCOCCOCCOCCOCCOCCOCCOCCn3cc(CCC(=O)NCCCC[C@H]4NC(=O)[C@H](CCC(=O)O)NC(=O)[C@@H]5CCCN5C(=O)[C@H](CC(C)(C)C)NC(=O)[C@@H](NC(C)=O)CSCCC(=O)N5CN6CN(C5)C(=O)CCSC[C@H](NC(=O)[C@H](Cc5ccc(O)cc5)NC(=O)[C@@H]5CCCN5C4=O)C(=O)N[C@@H](Cc4ccccc4)C(=O)N[C@@H](C)C(=O)N[C@@H](CC(=O)O)C(=O)N4CCC[C@H]4C(=O)N[C@@H](Cc4ccc(O)cc4)C(=O)N[C@@H](CCCC)C(=O)N[C@H](C(=O)N[C@@H](C)C(N)=O)CSCCC6=O)nn3)CCOCCC(=O)NCCOCCOCCOCCOCCOCCOCCOCCOCCOCCOCCn3cc(CCC(=O)N[C@H]4CSCCC(=O)N5CN6CN(C5)C(=O)CCSC[C@H](NC(=O)[C@@H](CC(=O)O)NC(=O)[C@H](Cc5cccc7ccccc57)NC(=O)[C@@H]5CCCN5C4=O)C(=O)N[C@@H](CCSC)C(=O)N[C@@H](CCCCNC(=N)N)C(=O)N[C@@H](CC(=O)O)C(=O)N[C@@H](Cc4c[nH]c5ccccc45)C(=O)N[C@@H](CO)C(=O)N[C@@H]([C@@H](C)O)C(=O)N4CCC[C@H]4C(=O)N4C[C@H](O)C[C@H]4C(=O)N[C@@H](Cc4c[nH]c5ccccc45)C(=O)N[C@H](C(N)=O)CSCCC6=O)nn3)nn1)C(=O)N1CCC[C@H]1C(=O)N[C@@H](Cc1ccc(O)cc1)C(=O)N2,Tumor necrosis factor receptor superfamily member 9/Nectin-4,"reporter gene, agonist, luciferase reporter",CD137 Jurkat reporter with HT-1376,"6 h, geometric mean",relative to: wells without compound,Emax,40 fold
CC(C)=CCc1c(O)cc(O)c2c1O[C@H](c1ccc(O)cc1)CC2=O,"Cytochrome P450 1A2 (CYP1A2, Homo sapiens, UniProt P05177)",,,"1 µM, pH 7.4",,inhibition,55.8 ± 0.7%
